Published values gathered from unrelated publications.
Protocols differ between the studies behind these lines. “And” joins repeats or separate records; there may be more than shown. ± gives the spread as reported. ≈ marks a conversion by molar mass, not a printed value.
UniProt P00760, sequence (whole entry, looked up): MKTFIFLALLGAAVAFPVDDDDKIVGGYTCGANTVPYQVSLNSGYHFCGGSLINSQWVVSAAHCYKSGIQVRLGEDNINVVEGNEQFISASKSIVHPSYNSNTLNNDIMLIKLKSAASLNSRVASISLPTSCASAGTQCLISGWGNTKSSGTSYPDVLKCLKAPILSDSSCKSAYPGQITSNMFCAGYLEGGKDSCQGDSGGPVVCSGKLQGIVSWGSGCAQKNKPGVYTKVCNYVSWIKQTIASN
UniProt P51589, sequence (whole entry, looked up): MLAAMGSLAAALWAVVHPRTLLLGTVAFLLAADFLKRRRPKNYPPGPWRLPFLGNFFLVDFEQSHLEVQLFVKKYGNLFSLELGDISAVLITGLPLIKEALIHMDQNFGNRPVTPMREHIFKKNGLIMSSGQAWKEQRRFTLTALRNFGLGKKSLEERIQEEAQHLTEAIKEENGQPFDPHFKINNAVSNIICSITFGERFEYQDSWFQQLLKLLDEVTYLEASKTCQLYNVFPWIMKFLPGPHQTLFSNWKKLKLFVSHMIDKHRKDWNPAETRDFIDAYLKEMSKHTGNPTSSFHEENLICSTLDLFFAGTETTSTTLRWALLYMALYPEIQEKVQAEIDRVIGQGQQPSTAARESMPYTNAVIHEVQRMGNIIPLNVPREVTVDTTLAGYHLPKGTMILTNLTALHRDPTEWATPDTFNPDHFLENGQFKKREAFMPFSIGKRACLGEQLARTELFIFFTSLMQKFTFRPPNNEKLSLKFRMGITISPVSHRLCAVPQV

| Structure (SMILES) | tested on | assay | test system | conditions | scale | quantity | result |
| --- | --- | --- | --- | --- | --- | --- | --- |
| CC1(F)CN(C(=O)Cn2c(=O)c(C(=O)NCc3ccc(Cl)cc3)cc3nc(N4CCN(CCN)C4=O)cnc32)C1 | human cytomegalovirus | – | MRC-5, Davis | – | relative to: CC50 over EC50 | selectivity ratio | > 200 |
| CNC(=O)C[C@H](Cc1ccc(F)cc1)NC(=O)[C@@H](Cc1ccc(Cl)cc1Cl)NC(=O)[C@H](N)Cc1ccccc1C#N | Huh-7-ACE2 | CellTiter-Glo | – | 0.0061 µM, 48 h, unit not given | relative to: DMSO | viability | 0.944 and 0.994 and 0.991 |
| CC(C)C[C@H](NC(=O)[C@H](CC(C)C)NC(=O)[C@H](CCCCN)NC(=O)[C@H](Cc1ccccc1)NC(=O)[C@@H](NC(=O)[C@H](CCCNC(=N)N)NC(=O)[C@@H](N)CCCCN)C(C)C)C(=O)N[C@@H](CCCCN)C(=O)N[C@@H](CCCNC(=N)N)C(=O)N[C@@H](Cc1ccc(O)cc1)C(=O)N[C@@H](Cc1c[nH]c2ccccc12)C(=O)N[C@@H](CCCNC(=N)N)C(=O)N[C@@H](CCC(N)=O)C(=O)N[C@@H](CC(C)C)C(=O)N[C@@H](CCCCN)C(=O)N[C@@H](CCCCN)C(=O)N1CCC[C@H]1C(=O)N[C@H](C(=O)N[C@@H](CCCNC(=N)N)C(=O)NCCOCCOCC(=O)O)C(C)C | Serine protease 1 (PRSS1, Bos taurus, UniProt P00760) | HPLC | – | 1 mg/mL, 6 h, 37 °C, together with: enzyme to peptide 50:1 | – | intact peptide remaining | 20 to 24% |
| Cc1nc(=O)c2cc(CN(C)c3ccc(C(=O)Nc4n[nH]c5ccccc45)s3)ccc2[nH]1 | Mycobacterium tuberculosis | – | H37Rv | 10 µM, 24 h | – | uptake from medium | 49.6 ± 4% |
| O=C(O)CCCOc1ccc(O)cc1-c1cc(-c2ccccc2C(F)(F)F)n(-c2ccccc2)n1 | Salmonella typhimurium | Ames test | TA1537 | concentration not given, with S9 metabolic activation | – | growth-inhibiting concentration | ≥ 1250 µg/plate |
| Cc1cc(C)c2nc3c(Br)cc(Br)c(O)c3nc2c1 | – | UV-vis | octanol/water | – | – | logP | 1.2 ± 0.23 |
| COc1cc2c(cc1NC(=O)c1cncn1C)C[C@H]1[C@H]3CCCC[C@@]23CCN1C | – | equilibrium dialysis | human plasma | 5 µM, 6 h | – | unbound fraction | 0.735 |
| CN(C)CCCNC(=O)[C@@H]1NC(=O)[C@@H]2Cc3ccc(cc3)Oc3cc4cc(c3O)-c3ccc5c(c[nH]c5c3)C[C@@H](NC(=O)C(NC(=O)CCCCCN)c3ccc(O)cc3)C(=O)N[C@H](c3ccc(O)cc3)C(=O)N[C@H]4C(=O)N[C@@H](C(=O)N2C)c2ccc(cc2)Oc2cc1ccc2O (stereo partly shown) | human red blood cells | – | PBS | 512 µg/mL, 1 h, pH 7.4, 37 °C | – | hemolysis | 0% |
| Cc1cc(-c2ccc3ccccc3c2)nnc1NCCN1CCN(C)CC1 | Cytochrome P450 2J2 (CYP2J2, Homo sapiens, UniProt P51589) | substrate | recombinant enzyme | 1000 nM, 30 min | – | remaining compound | 93.8% |
| O=C1NC2(CC2)COc2ncc(F)cc2[C@H]2COCCN2c2ccn3ncc1c3n2 | Salmonella typhimurium | Ames test | TA1535 | 500 µg/plate, 48 h, together with: rat liver S9 | – | revertant colonies | 7 ± 4 revertants/plate |
| Cc1nc2cccc(OCC(C)(C)C(=O)NC(C)C)c2c(N)c1C(=O)[O-].[Na+] | Salmonella typhimurium | Ames preincubation | TA1535 | 0.32 mg/plate, together with: without rat liver S9 | – | revertant colonies | 15 ± 5 colonies/plate |
| CC[C@H](C)[C@H](NC(=O)[C@H](CCCCN)NC(=O)[C@H](CCCCN)NC(=O)[C@H](Cc1ccccc1)NC(=O)[C@H](Cc1ccccc1)NC(=O)[C@H](CCCCN)NC(=O)[C@H](CCCCN)NC(=O)[C@H](Cc1ccccc1)NC(=O)[C@H](CCCNC(=N)N)NC(=O)[C@@H](N)CCCCN)C(=O)N[C@@H](CCCCN)C(=O)N[C@@H](CCCCN)C(=O)N[C@@H](CO)C(=O)N[C@H](C(=O)N[C@@H](CCCCN)C(=O)N[C@@H](CCCCN)C(=O)N[C@@H](CCCNC(=N)N)C(=O)N[C@H](C(=O)N[C@@H](CCCCN)C(=O)N[C@@H](CCCCN)C(=O)N[C@@H](CC(C)C)C(=O)N[C@@H](Cc1ccccc1)C(=O)N[C@@H](CCCCN)C(=O)N[C@@H](CCCCN)C(=O)N1CCC[C@H]1C(=O)N[C@@H](CCCNC(=N)N)C(=O)N[C@H](C(=O)N[C@H](C(=O)N1CCC[C@H]1C(=O)N[C@H](C(=O)N[C@@H](CO)C(=O)N[C@H](C(=O)N1CCC[C@H]1C(=O)N[C@@H](Cc1ccccc1)C(=O)O)[C@@H](C)CC)[C@@H](C)CC)[C@@H](C)CC)C(C)C)C(C)C)C(C)C | Pseudomonas aeruginosa | – | P1 | after heating at 60 °C | – | MIC | 4 µg/mL (≈ 0.948 µM) |
| COc1ccc(-n2cc(C(=O)N3C[C@]4(OC(=O)c5ccccc5NC(C)=O)CC[C@H](OC)[C@@]56[C@@H]4C[C@@H]([C@@H]35)[C@@]3(O)C[C@H](OC)[C@H]4C[C@@H]6[C@]3(O)[C@H]4OC)nn2)cc1 | – | – | rat Sprague-Dawley, plasma | intravenous, 2 mg/kg | – | AUC(0-t) | 52.1 ng·h/mL |
| CCN(CC)CCOc1ccc(-c2nnn(Cc3ccc(OC)cc3)c2N)cc1 | SLCO1B1 (Homo sapiens, UniProt Q9Y6L6) | transporter uptake, inhibitor | – | – | – | IC50 | > 100 µM |
| Nc1ccccc1C(=O)OCC#CCOC(=O)c1ccccc1N | THLE-2 | MTT | – | 72 h | – | IC50 | > 50 µM |
| CC[C@H](C)[C@H](NC(=O)[C@H](CC(=O)O)NC(=O)[C@@H](NC(=O)[C@@H]1CCCN1C(=O)[C@@H](N)CCCNC(=N)N)[C@@H](C)O)C(=O)N[C@@H](CCCCN)C(=O)N[C@H]1CSSC[C@@H]2NC(=O)[C@H](CCCNC(=N)N)NC(=O)CNC(=O)[C@H](CC(N)=O)NC(=O)[C@H]([C@@H](C)O)NC(=O)[C@H](CCCCN)NC(=O)CNC(=O)[C@H](Cc3ccccc3)NC(=O)[C@H](CCCNC(=N)N)NC(=O)[C@H](CO)NC(=O)[C@H](CCCCNC(=O)OCc3cc(OC)c(OC)cc3[N+](=O)[O-])NC(=O)[C@@H]3CSSC[C@@H](C(=O)N[C@@H](Cc4ccccc4)C(=O)O)NC(=O)[C@H](CC(=O)O)NC(=O)[C@H](CSSC[C@H](NC(=O)[C@H](CCC(N)=O)NC(=O)[C@H](Cc4ccc(O)cc4)NC(=O)[C@H](CO)NC(=O)[C@H](CCC(=O)O)NC(=O)[C@H](CO)NC1=O)C(=O)N[C@@H](Cc1ccccc1)C(=O)N1CCC[C@H]1C(=O)N[C@@H](C(C)C)C(=O)N3)NC(=O)[C@H](Cc1ccccc1)NC(=O)CNC(=O)[C@H](CC(N)=O)NC(=O)[C@H](C(C)C)NC2=O | – | – | rat, anaesthetised | intravenous, 350 µg/kg, illumination 365 nm 75 mW/cm2, 10 min, right atrium | relative to: control | RR interval change | 15.9 ± 2.9 ms |
| Nc1nc(Nc2ccc(Cl)cc2)nn1S(=O)(=O)c1ccc2ccccc2c1 | BHK-21 | – | – | – | – | CC50 | 7.9 µM |
| CNC(=O)CC[C@H](Cc1ccccc1)NC(=O)[C@@H](Cc1ccc(Cl)cc1Cl)NC(=O)[C@H](N)Cc1ccccc1[N+](=O)[O-] | Huh-7-ACE2 | CellTiter-Glo | – | 0.195 µM, 48 h, unit not given | relative to: DMSO | viability | 0.868 and 0.977 and 0.886 |
| CC(=O)NCCCC[C@@H]1NC(=O)[C@H](Cc2c[nH]c3c(C)cccc23)NC(=O)[C@H]([C@@H](C)O)NC(=O)[C@H](CC(N)=O)NC(=O)[C@@H](NC(C)=O)C(C)(C)SSC(C)(C)[C@@H](C(=O)N[C@@H](Cc2ccc(OCCN)cc2)C(=O)N[C@@H](Cc2ccc3ccccc3c2)C(=O)NC2(C(=O)N[C@@H](CCC(=O)O)C(=O)N[C@@H](CC(N)=O)C(=O)N[C@@H](Cc3cccnc3)C(=O)N(C)CC(N)=O)CCOCC2)NC1=O | human alpha-1-acid glycoprotein 0.14% | equilibrium dialysis | – | 1 µM | – | fraction unbound | 91.5 ± 1.7% |

Excerpt of the above:
| Structure (SMILES) | tested on | assay | test system | conditions | scale | quantity | result |
| --- | --- | --- | --- | --- | --- | --- | --- |
| COc1ccc(-n2cc(C(=O)N3C[C@]4(OC(=O)c5ccccc5NC(C)=O)CC[C@H](OC)[C@@]56[C@@H]4C[C@@H]([C@@H]35)[C@@]3(O)C[C@H](OC)[C@H]4C[C@@H]6[C@]3(O)[C@H]4OC)nn2)cc1 | – | – | rat Sprague-Dawley, plasma | intravenous, 2 mg/kg | – | AUC(0-t) | 52.1 ng·h/mL |
| CCN(CC)CCOc1ccc(-c2nnn(Cc3ccc(OC)cc3)c2N)cc1 | SLCO1B1 (Homo sapiens, UniProt Q9Y6L6) | transporter uptake, inhibitor | – | – | – | IC50 | > 100 µM |
